Results from different studies.
Every numbered part comes from another study and shows a few of its results, in no order.
Sequence of UniProt Q9C0B0 (30-357, looked up): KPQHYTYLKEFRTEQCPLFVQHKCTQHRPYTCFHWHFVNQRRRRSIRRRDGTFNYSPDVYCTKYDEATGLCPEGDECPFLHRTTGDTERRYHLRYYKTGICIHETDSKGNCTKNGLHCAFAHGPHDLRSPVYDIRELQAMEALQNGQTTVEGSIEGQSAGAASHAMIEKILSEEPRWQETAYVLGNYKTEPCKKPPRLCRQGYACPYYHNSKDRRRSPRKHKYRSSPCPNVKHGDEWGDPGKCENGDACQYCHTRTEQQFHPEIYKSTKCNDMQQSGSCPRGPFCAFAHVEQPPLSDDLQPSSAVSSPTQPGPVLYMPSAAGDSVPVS

Set 1 — method: RNA Bind-n-Seq; molecule type: RNA; medium: in vitro; tested at: 200 nM; notes: whole 134-nt RNA, ends assumed; together with: 150 mM LiCl; reference: input library; reading: higher = stronger binding; all molecules: 7-deaza-guanosine replaces G
Target: Fragile X messenger ribonucleoprotein 1, C-terminal low-complexity region (Fmr1, Mus musculus, UniProt P35922)
Sequence	log2 enrichment
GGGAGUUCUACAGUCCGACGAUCUCUAACUAAUUUUUCUUUGUUUUUUAACAGGAGAGGAGAUACUUACCCUUAAGUCAAGCCAGAAAAAGUGGUUUCCAAAUGGAUUGGCUGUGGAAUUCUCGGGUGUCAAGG	-2.16
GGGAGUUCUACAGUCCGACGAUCCCUGUGCUACACAUCGUAUGUACCGAAUCGGGGAAAAAGGGGUUUGGGGAAAAAAAGGGGAAAGUAUUAUGUUACGCCGUUCGGAUCUGCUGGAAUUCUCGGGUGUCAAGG	-1.46
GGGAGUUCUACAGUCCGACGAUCGCAGGAAGUAAAAACAAAUGGAAAUGCUUCGGAUAGUGGCAGGGGUGGGGGUUGCUAAGGCAAGGGUGGGAUGGGAGUGGGUAAAGAGUUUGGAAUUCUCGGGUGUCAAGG	1.26
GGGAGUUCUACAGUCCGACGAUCUAACUUUAGAGGAGGAUCUGAUGGAUAUGGCAGUGGACGUGGAUUUGGGGAUGGCUAUAAUGGGUAUGGAGGAGGACCUGGAAGUGGCAAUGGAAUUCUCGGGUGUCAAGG	0.229
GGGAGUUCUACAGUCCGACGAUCUUCCGCGACUACCGGCGUGUGCACAAGCCGCCCAAGGUGCAGGAGAAGUGCCAGCUGGAGAUCAACUUCAACACGCUGCAGACCAAGCUGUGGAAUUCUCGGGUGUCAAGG	-2.82
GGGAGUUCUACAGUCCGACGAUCCCUGUGCUACACAUCGUAUGUACCGAAUCGGGGUUUUUGGGGAAAAAAAGGGGAAAGGGGAAAGUAUUAUGUUACGCCGUUCGGAUCUGCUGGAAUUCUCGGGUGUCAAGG	-0.978
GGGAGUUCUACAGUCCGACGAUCUGUCCCUGACUCUCCAUUUCCCCAUCUGAGUGGAUUUGGACCUAAUAGGGCACUGGAGCUGGUUCGAAUCCUGACUGGACUACUUGGCAAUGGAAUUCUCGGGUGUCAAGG	0.59
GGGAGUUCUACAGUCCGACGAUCCAAGUCCUGUGCUACACAUCGUAUGUACCGAAUCGGGUUUUUGGGUUUGGGUGGGAAAGUAUUAUGUUACGCCGUUCGGAUCUGCACUUCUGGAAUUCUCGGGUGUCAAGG	-1.4
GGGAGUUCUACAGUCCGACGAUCGCAGGAAGUAAAAACAAAUGGGAAUGCUUCGGAUAGUGGCAGGGGUGGGGGUUGCUAAGGAAAGGGUGGGAUGGGAGUGGGUAAAGAGUUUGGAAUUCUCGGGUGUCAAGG	1.43
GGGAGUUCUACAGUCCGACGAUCCAAGUCCUGUGCUACACAUCGUAUGUACCGAAUCGGGGUUUGGUUUGGGGUUUGGAAAGUAUUAUGUUACGCCGUUCGGAUCUGCACUUCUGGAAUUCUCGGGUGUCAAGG	-2.15
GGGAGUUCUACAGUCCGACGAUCACCAUGCAGGUGGGCAUCUUUGGGAAGUGGGGCAAGGGGGGGAUAGGGAGGGGGGUAACACCUUGGGAACAGGUGGUCCCAGGUCGUUUCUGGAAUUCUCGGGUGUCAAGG	1.34

Set 2 — method: protein-binding microarray; molecule type: double-stranded DNA, one strand shown; medium: in vitro; tested at: 250 nM; notes: 60-bp whole probe; together with: salmon DNA 0.4 mg/ml; reference: random background probes; reading: higher = stronger binding; constant ends, left off below: GCCTAGCAC … GTCTTGATTCGCTTGACGCTGCTG
Target: Interferon regulatory factor 5, full length, phosphomimetic (IRF5, Homo sapiens, UniProt Q13568-2, residues 1-514, K96S/S451D/S453D/S456D/S462D)
Sequence	log fluorescence
GACGGTATGGGGACTGGGGACGTGCTA	-0.0192 z-score
GACGACCTGAGTATCGAGACGTGCTAG	1.36 z-score
GACGGTATCGGACTGGGAACGTGCTAG	1.12 z-score
TCAGTTCTCAGCTTGGGACTGTGCTAG	-0.336 z-score
TTAGGACTGGACTTTCAGTTAGTGCTA	2.78 z-score
TTATGTATCCTTCTCCTTTAGTGCTAG	0.866 z-score
TTAGGTCTCCTACTGCTTTAGTGCTAG	-0.151 z-score
TTAGGTATCGGGCTGGGTTAGTGCTAG	1.82 z-score
TCAAAAAATGGAAATCTAACTGTGCTA	0.492 z-score
TGCTGTCTCAGAGTCCTCTGGTGCTAG	-0.097 z-score
CACGGTTCCGGTTTCGGGACGTGCTAG	4.14 z-score
TCACATATACACTGTGTAACTGTGCTA	0.567 z-score
GACGGACAGGGGTTTCGGGACGTGCTA	1.39 z-score
TAAGGTTTCGACTATCGGTTAGTGCTA	9.26 z-score
GACGGTTTCGACTTTCGGGATGTGCTA	8.78 z-score
TTAGGACTGCTACTGCTGTAGTGCTAG	-0.422 z-score
TTAGATTTCGCGTTTCGATTAGTGCTA	6.07 z-score
GACGATATCAGTCTTGAGACGTGCTAG	0.88 z-score
TTAGGTGTCGGACTGGGTTAGTGCTAG	-0.513 z-score
GACGGTAGCGGTCTCGGGACGTGCTAG	-0.406 z-score
AACAGTTCATGTTTTGGAAAGTGCTAG	0.53 z-score
TTAGGGCTCCTTCTCCTTTAGTGCTAG	-0.348 z-score
TTAGAACTGAGTCGCGATTAGTGCTAG	0.078 z-score
ATAGGTATCCTTTTCCTTTAGTGCTAG	0.508 z-score

Set 3 — method: RNA Bind-n-Seq; molecule type: RNA; medium: in vitro; tested at: 365 nM; reference: no-protein control; reading: higher = stronger binding
Target: RNA binding protein fox-1 homolog 2, RRM domain, GST-SBP tag (RBFOX2, Homo sapiens, UniProt O43251-10, residues 100-194)
Notes: natural RNA segment, single round, ends assumed
Target sequence (chain): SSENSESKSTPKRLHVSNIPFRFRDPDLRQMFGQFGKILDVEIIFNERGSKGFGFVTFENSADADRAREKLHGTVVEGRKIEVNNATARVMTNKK
Sequence	RBNS enrichment (R)
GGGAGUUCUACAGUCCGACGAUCGGAUUGACAUUGGAUGGGGGAGGUAGGAGGCACAUCAAUAAAAAGGAAACCACCGAGCUGAAUUGAAUUUGCCCUGUGUCAUUCCACCUCCUGGUUUUUUGUUUCAAGUAUGGAAUUCUCGGGUGCCAA	0.713
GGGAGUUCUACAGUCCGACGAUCUGGGUACAGGAGAAGUUUGGUGUUUGGUAGGUUUUUCAACAUUAGUUUUUGAGACUAGUUUACCUCUUCACAUUUAUGCUCACAACCCUCUUGUUAGAAAAGUCUGUGUUUGGAAUUCUCGGGUGCCAA	0.393
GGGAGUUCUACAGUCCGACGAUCGCUUGGAAGCAAUUUUUAAAGGGAGUGGAAAGCUUAGGGAAAUCGUUUGUAUUUGGAGUCUUGCUGUGUCUGGUAUUGGAGGUGUGGACACCUUGAGUCUGGGUGAGUUGUGGAAUUCUCGGGUGCCAA	2.73
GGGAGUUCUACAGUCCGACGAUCCAGCUUCCACAACUGCUUCAUCUCUGCCAACACUAAUUUUUCCCACACUGUCUUUGUACAUUUCAGAGCUUUGGUCUCCUGAGUGGGCCUCCUUUUCCCACUGUGCCAGGUGGAAUUCUCGGGUGCCAA	0.647
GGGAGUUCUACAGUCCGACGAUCUCCUCCAUCCACCCUGAGGACCCUGGGGCUCAGUGGAGGCAGGGCCCUGCCCCCCUCCCUUCCGCUCCUGCCCAGCCUGGGGGAAGGAGAAAGGAGGGGAGAAAGCGGGCUGGAAUUCUCGGGUGCCAA	0.656
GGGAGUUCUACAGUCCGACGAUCUCUUUGGAGAAUGGGGAGGCCUCUUGGAGACACAGAGGGUUUCACCUUGGAUGACCUCUAGAGAAAUUGCCCAAGAAGCCCACCUUCUGGUCCCAACCUGCAGACCCCACUGGAAUUCUCGGGUGCCAA	0.422
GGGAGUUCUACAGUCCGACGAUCACGAGACUAUAAAAGGCUUAGCCACACUACGGGACAAAUUGUGUUGUGAAUUCGCAUUGCUGUUUUGUGUACUAAAACGUAACCAUUGGCAUUGUGAACAACAAGCUCUUUGGAAUUCUCGGGUGCCAA	0.399
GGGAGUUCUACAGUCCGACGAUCCCCCAUGGAGAAUUUGACAUACCCUGGACUCCUGUGUGCCUCCUGCCAUCCCUGCACACAGCCUGGGGAGAAGCCUGUGCCUCCCCGUGUGGAGAGAAGGCAACCCCAGAUGGAAUUCUCGGGUGCCAA	0.42
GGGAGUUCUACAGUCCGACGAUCUGAAGGUUGGACCCGUGAAGCCCUGGCAUAGACCUGAAGAGGUGGCAGCCAGUGGGUGGUUGUUUCUCAAUCUCUGUAGCAUGACUUUUUAAUCCCCAGGUGUGUUAGUCUGGAAUUCUCGGGUGCCAA	5.15
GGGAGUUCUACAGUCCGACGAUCGAUGGUAGAGAGAGUUGCUGGCUAUUUAAAAAGCUCUUUCAUCUUUUAAUUCACCUCUUCUUUUCACCUCUUUAACCACUCCUCAGGAACAGAACACUUCUAGGACUGGGUGGAAUUCUCGGGUGCCAA	0.485
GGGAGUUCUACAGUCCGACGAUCACUAGAUCAUGAUAUACUUGGAAAGUGUGAAAUAUGGUGUGUACUCAGUUAUUGGCUUCCAUUUUUUAUGAUCUUUCAACUAUAACAAUUAUGAUAGAAAUCGAUUUAACUGGAAUUCUCGGGUGCCAA	0.335
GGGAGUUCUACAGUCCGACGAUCUAAACUGAUAAAGGGUGUUUAUUUUUACUUUUAGAAUUGGUCCUAUGAAGAAGUAGAAAGUGAGUCAUGCACUAGACAGUGGGCCUAGCUCAUCAGUGGCUAAAGUUGAAUGGAAUUCUCGGGUGCCAA	0.8

Single results of other studies
Sequence	target	assay	test system	conditions	how to read	endpoint	value
GGGAGUUCUACAGUCCGACGAUCAAAUAUGUUGUACAUUUGAUUAAAAUUAUUCCGAUAAAUAUUACUAUGUUGACUUUUAAACCGCUUUAUCCUAUUUUUCAUUCAUUUUGCAAAUAUUUGUUGUGUGCCGUUUCUUAACGUCAACAGAGGAUUGAGCAUCA	RING finger protein unkempt homolog, zinc fingers 1-6, SBP tag (UNK, Homo sapiens, UniProt Q9C0B0, residues 30-357)	RNA Bind-n-Seq	RNA, in vitro	100 nM, RNA with constant flanks, ends assumed	reference: input RNA pool, higher = stronger binding	bound/input enrichment	0.506 ratio

Some of these lines once more (set 1):
Sequence	log2 enrichment
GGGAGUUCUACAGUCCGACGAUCGCAGGAAGUAAAAACAAAUGGAAAUGCUUCGGAUAGUGGCAGGGGUGGGGGUUGCUAAGGCAAGGGUGGGAUGGGAGUGGGUAAAGAGUUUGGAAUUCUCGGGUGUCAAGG	1.26
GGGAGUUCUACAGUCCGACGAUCCAAGUCCUGUGCUACACAUCGUAUGUACCGAAUCGGGGUUUGGUUUGGGGUUUGGAAAGUAUUAUGUUACGCCGUUCGGAUCUGCACUUCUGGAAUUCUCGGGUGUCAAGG	-2.15
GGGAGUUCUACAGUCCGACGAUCCAAGUCCUGUGCUACACAUCGUAUGUACCGAAUCGGGUUUUUGGGUUUGGGUGGGAAAGUAUUAUGUUACGCCGUUCGGAUCUGCACUUCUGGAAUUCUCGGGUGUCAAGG	-1.4
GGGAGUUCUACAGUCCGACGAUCACCAUGCAGGUGGGCAUCUUUGGGAAGUGGGGCAAGGGGGGGAUAGGGAGGGGGGUAACACCUUGGGAACAGGUGGUCCCAGGUCGUUUCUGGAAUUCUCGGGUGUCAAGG	1.34
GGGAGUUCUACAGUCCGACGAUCCCUGUGCUACACAUCGUAUGUACCGAAUCGGGGAAAAAGGGGUUUGGGGAAAAAAAGGGGAAAGUAUUAUGUUACGCCGUUCGGAUCUGCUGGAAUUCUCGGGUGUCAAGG	-1.46
